Measured values of several laboratories.
A part holds a random share of what one study measured. Several values in a cell are separate wells, animals, samples, runs or records.

Series 1
Cell line: HCC1569
Method: in-cell western
Refers to: CDK1 phospho-Thr14
Tested at: 13.72 nM
Measurement: pCDK1 (Thr14) level
Cc1ccc(O)c(C)c1-c1cnc2[nH]c(-c3cnc(N)nc3)cc2c1C#N: 25.5% and 29.2%
Cc1ccc(O)c(C)c1-c1cnc2[nH]c(-c3cnc(N4CCC5(CC4)CC(CN4CCN(c6ccc(NC7CCC(=O)NC7=O)cc6F)CC4)C5)nc3)cc2c1C#N (stereo not drawn): 31 RLU and 30.1 RLU
Cc1ccc(O)c(C)c1-c1cnc2[nH]c(-c3cnc(N4CCC(CN5CCN(c6ccc7c(c6)CN(C6CCC(=O)NC6=O)C7=O)CC5)CC4)nc3)cc2c1C#N (stereo not drawn): 18.9 RLU and 28 RLU
Cc1ccc(O)c(C)c1-c1cnc2[nH]c(-c3cnc(N4CCC(CN5CCN(c6ccc7c(c6F)CN(C6CCC(=O)NC6=O)C7=O)CC5)CC4)nc3)cc2c1C#N (stereo not drawn): 16 RLU and 11 RLU

Series 2
Cell line: MDA-MB-468
Observed: cell viability
Method: CellCounting-Lite
Tested at: 666.7 nM
Temperature: 37 °C
Direction: higher = more viable cells
Measurement: luminescence signal
CCn1cnc2c(NCc3nc4cc(Cl)c(Cl)cc4[nH]3)nc(N3CCN(c4ccccn4)CC3)nc21: 183000 a.u. and 158000 a.u. and 134000 a.u.
CCn1cnc2c(NCc3nc4cc(Cl)c(Cl)cc4[nH]3)nc(N3CCN(C(=O)c4cccnc4)CC3)nc21: 29900 a.u. and 33400 a.u. and 32700 a.u.
CCn1cnc2c(NCc3nc4cc(Cl)c(Cl)cc4[nH]3)nc(N3CCN(C(=O)c4ccncc4)CC3)nc21: 41800 a.u. and 31600 a.u. and 37600 a.u.
CCn1cnc2c(NCc3nc4cc(Cl)c(Cl)cc4[nH]3)nc(N3CCC(NC(C)=O)CC3)nc21: 35200 a.u. and 31700 a.u. and 31900 a.u.
CC(=O)N1CCN(c2nc(NCc3nc4cc(Cl)c(Cl)cc4[nH]3)c3ncn(-c4cnn(C)c4)c3n2)CC1: 30800 a.u. and 34200 a.u. and 36000 a.u.
CC(=O)N1CCN(c2nc(NCc3nc4cc(Cl)c(Cl)cc4[nH]3)c3ncn(C(C)C)c3n2)CC1: 422000 a.u. and 401000 a.u. and 476000 a.u.
CCn1cnc2c(NCc3nc4cc(Cl)c(Cl)cc4[nH]3)nc(N3CCN(C(=O)c4ccccn4)CC3)nc21: 37200 a.u. and 31300 a.u. and 43400 a.u.
CCn1cnc2c(NCc3nc4cc(Cl)c(Cl)cc4[nH]3)nc(N3CCN(C(=O)CNC(C)=O)CC3)nc21: 28400 a.u. and 32300 a.u. and 32600 a.u.
CCCCOc1nc(NCc2nc3cc(Cl)c(Cl)cc3[nH]2)c2ncn(CC)c2n1: 36300 a.u. and 40400 a.u. and 39500 a.u.
CCn1cnc2c(NCc3nc4cc(Cl)c(Cl)cc4[nH]3)nc(N3CCn4ncnc4C3)nc21: 37100 a.u. and 37300 a.u. and 36300 a.u.

Series 3
SMILES: CCN1/C(=C/C=C2\CCCC(/C=C/C3=[N+](CC)c4ccccc4C3(C)C)=C2NCCCCCCCCN2CCC(Nc3nc4ccccc4n3Cc3ccc(F)cc3)CC2)C(C)(C)c2ccccc21
Cell line: U-87 MG
Tested at: concentration not given
Reference: DMSO
Measurement: log2 fold change
refers to: CSRNP2 mRNA: 1.14
refers to: DNAH10 mRNA: 1.89
refers to: ALAS1 mRNA: 1.09
refers to: JADE1 mRNA: -1.29
refers to: SOX5 mRNA: 1.86
refers to: ANKRD1 mRNA: 2.71
refers to: SRC mRNA: 0.886
refers to: SLC12A6 mRNA: 1.27
refers to: POLE mRNA: -1.7
refers to: SHROOM2 mRNA: -6.12
refers to: RNF6 mRNA: 0.942
refers to: KBTBD8 mRNA: 2.38
refers to: SMCR8 mRNA: 0.886
refers to: SPARC mRNA: -1.7
refers to: OLFML2B mRNA: -3.55
refers to: ZNF684 mRNA: -0.997

Series 4
Organism: Arabidopsis thaliana
Strain: Col-0
Tested at: 100 µg/mL
Setting: seed germination, single repetition
Measurement: hypocotyl length
CN1C(=O)C(O)(C(=O)O)Oc2cc(F)ccc21 (stereo not drawn): 1.32 cm and 1.36 cm and 1.33 cm and 1.35 cm and 1.34 cm
CC(C)=CCN1C(=O)C(O)(C(=O)O)Oc2cc(F)ccc21 (stereo not drawn): 1.41 cm and 1.45 cm
O=C(O)C1(O)Oc2cc(Br)ccc2N(Cc2ccccc2)C1=O (stereo not drawn): 0.81 cm and 0.85 cm and 0.77 cm and 0.9 cm and 0.83 cm
O=C(O)C1(O)Oc2cc(Cl)ccc2N(Cc2ccccc2)C1=O (stereo not drawn): 1.21 cm and 1.2 cm and 1.27 cm and 1.22 cm
CCN1C(=O)C(O)(C(=O)O)Oc2cc(F)ccc21 (stereo not drawn): 1.25 cm and 1.2 cm and 1.26 cm and 1.21 cm

Other studies, line by line
COCC1CC2C(CCC3(C)C(O)CCC23)c2ccc(O)cc21 (stereo not drawn)  expression ratio (SK-OV-3; DNA microarray, refers to: KIF20A; concentration not given; reference: untreated control): 0.862 and 0.914 and 0.922 and 0.872 and 0.912

Excerpt of the above (series 2):
CC(=O)N1CCN(c2nc(NCc3nc4cc(Cl)c(Cl)cc4[nH]3)c3ncn(C(C)C)c3n2)CC1: 422000 a.u. and 401000 a.u. and 476000 a.u.
CCn1cnc2c(NCc3nc4cc(Cl)c(Cl)cc4[nH]3)nc(N3CCN(C(=O)c4ccccn4)CC3)nc21: 37200 a.u. and 31300 a.u. and 43400 a.u.
CCn1cnc2c(NCc3nc4cc(Cl)c(Cl)cc4[nH]3)nc(N3CCN(C(=O)CNC(C)=O)CC3)nc21: 28400 a.u. and 32300 a.u. and 32600 a.u.
CCCCOc1nc(NCc2nc3cc(Cl)c(Cl)cc3[nH]2)c2ncn(CC)c2n1: 36300 a.u. and 40400 a.u. and 39500 a.u.
CCn1cnc2c(NCc3nc4cc(Cl)c(Cl)cc4[nH]3)nc(N3CCn4ncnc4C3)nc21: 37100 a.u. and 37300 a.u. and 36300 a.u.
